Published values gathered from unrelated publications.
A part holds a random share of what one study measured.

Study 1 — technique: RNA Bind-n-Seq; form: RNA; sample: in vitro; concentration: 200 nM; setting: whole 134-nt RNA, ends assumed; with: 150 mM KCl; baseline: input library; reading: higher = stronger binding; measurement: log2 enrichment
Target: Ras GTPase-activating protein-binding protein 1, full length (G3BP1, Homo sapiens, UniProt Q13283)
Sequence of UniProt Q13283 (whole entry, looked up): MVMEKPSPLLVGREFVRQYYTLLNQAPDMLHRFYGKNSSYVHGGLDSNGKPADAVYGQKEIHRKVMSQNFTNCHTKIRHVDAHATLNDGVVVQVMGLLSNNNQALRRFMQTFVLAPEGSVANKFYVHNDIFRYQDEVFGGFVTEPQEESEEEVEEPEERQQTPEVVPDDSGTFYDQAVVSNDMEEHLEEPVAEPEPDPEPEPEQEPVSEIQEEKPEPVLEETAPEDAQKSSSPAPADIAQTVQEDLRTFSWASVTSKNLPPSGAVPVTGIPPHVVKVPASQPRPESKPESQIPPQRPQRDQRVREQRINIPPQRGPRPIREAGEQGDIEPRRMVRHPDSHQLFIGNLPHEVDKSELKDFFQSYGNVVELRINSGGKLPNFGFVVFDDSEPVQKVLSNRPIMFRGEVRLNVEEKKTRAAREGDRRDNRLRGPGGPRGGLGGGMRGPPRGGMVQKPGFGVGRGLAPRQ
Shared flanks, not repeated: GGGAGUUCUACAGUCCGACGAUC … UGGAAUUCUCGGGUGUCAAGG
CCUCAAGUCCUGUGCUACACAUCGUAUGUACCGAAUCGGGGCGGCGGCGGGGAAAGUAUUAUGUUACGCCGUUCGGAUCUGCACUUCCAG: 0.4
CCUGUGCUACACAUCGUAUGUACCGAAUCGGGUUUUUUUGGUUUUUUUGGGUUUUUUUGGGAAAGUAUUAUGUUACGCCGUUCGGAUCUG: -1.09
UAACUUUAGAGGAGGAUCUGAUGGAUAUGGCAGUGGACGUGGAUUUGGGGAUGGCUAUAAUGGGUCUGGAGGAGGACCUGGAGGUGGCAA: 0.23
AAGUCCUGUGCUACACAUCGUAUGUACCGAAUCGGGGAAAGGGAAAGGGAAAGGGGAAAGUAUUAUGUUACGCCGUUCGGAUCUGCACUU: 0.413
UCAACAAGAGAUGUUCAAGAACUUUUGACACAAUAUACCAAGUUUGCACAGAUGGUAAAAAAGAUGGGAGGUAUCAAAGGACUUUUCAAA: 0.143
UGGGAGGUGGAUUUUGUUUAUUUUUUUAGCUCAUUUCCAGGGGUGGGAAUUUUUUUUUAAUAUGUGUCAUGAAUAAAGCUGUUUUUGAAA: 0.242
GUCCUGUGCUACACAUCGUAUGUACCGAAUCGGGUUUGGGAAAAAAAGGGUUUUUGGGAAAGUAUUAUGUUACGCCGUUCGGAUCUGCAC: -0.266
GUCCUGUGCUACACAUCGUAUGUACCGAAUCAAACCCAAACCCCCCCAAACCCCCAAAAAAGUAUUAUGUUACGCCGUUCGGAUCUGCAC: -0.315
GGCAGGAGGAAGAGCGCAGGCGCCGUGAAGAAGAGAUGCGGCGGCAGCAAGAAGAAAUGAUGCGGCGACAGCAGGAAGGAUUCAAGGGAA: 0.909

Study 2 — technique: competition protein-binding microarray; form: double-stranded DNA, one strand shown; sample: in vitro; concentration: 2 µM; with: Pho4 competitor, 0.05 µM; reading: higher = stronger binding; measurement: fluorescence intensity; shared flanks, not repeated: … GTCTTGATTCGCTTGACGCTGCTG
Target: Centromere-binding protein 1, full length, His-tagged (CBF1, Saccharomyces cerevisiae, UniProt P17106, residues 1-351)
Sequence of UniProt P17106 (whole entry, looked up): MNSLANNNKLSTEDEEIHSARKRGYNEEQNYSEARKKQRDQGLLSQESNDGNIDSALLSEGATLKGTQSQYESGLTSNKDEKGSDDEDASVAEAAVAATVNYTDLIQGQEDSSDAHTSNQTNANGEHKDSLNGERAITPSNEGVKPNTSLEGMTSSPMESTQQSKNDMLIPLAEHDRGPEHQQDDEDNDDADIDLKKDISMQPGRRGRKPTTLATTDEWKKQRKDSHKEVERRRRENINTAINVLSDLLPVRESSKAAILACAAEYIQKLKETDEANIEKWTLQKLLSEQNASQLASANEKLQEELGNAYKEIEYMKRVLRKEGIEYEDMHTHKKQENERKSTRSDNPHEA
Setting: whole 60-bp probe, lowest competitor level
CTTTCCCGATCTTGTGCTGTGGGTGTAGCACATTTG: 64.6 a.u.
CGGGGTTAAGTTTGCGAAGTGGGTGGCTTGCAGCAG: 75.9 a.u.
GCTGCTCTGTACTGTCACATGATTCTTTCCCAACTC: 1100 a.u.
CATACCCAACCTTTTCACGTGTCTTAAGATATTTGT: 1320 a.u.
CGGGGTTAAGTTTGCCCTGTGGGTGGCTTGCAGCAG: 64.2 a.u.
CTAACGAAGGTTTGTCACTAAACTTACAAGCCAAGT: 67.3 a.u.
CTTTCCCGATCTTGGCACGTGTTTTTAGCACATTTG: 2310 a.u.
AGCGACCTTCTTGGCACCGTGCTTTTTGGCGACCTT: 70 a.u.
TATTCAGAAACGAGTCACGTTGTGGAAAATCTCCCT: 1160 a.u.
ATCGAATTCCTTTGTAACGTGCAAAGCATTTTATAG: 186 a.u.
GTCTGAGTAAGTCCGCACGTCCAACGTCTTGAGTCG: 66.5 a.u.
CTCTACTATGGCATCCACATGAAAACCAGTCTCAGA: 76.7 a.u.
TGCGCAACAACTTGCGCCGTGGGTGTATGTCTAGAA: 57.4 a.u.
CTTCTGTAAATTTGCAAGGTGGGTGGACGCGCCCCG: 72 a.u.
TATCAAATTTGCGGCCACGCAAGTAACTACGTAGGT: 77 a.u.
TAGGCCGTACCGGTTCTCGTGGTGATGTTACCCAAG: 75.2 a.u.

Study 3 — technique: RNA Bind-n-Seq; form: RNA; sample: in vitro; concentration: 365 nM; baseline: no-protein control; reading: higher = stronger binding; measurement: RBNS enrichment (R)
Target: RNA binding protein fox-1 homolog 2, RRM domain, GST-SBP tag (RBFOX2, Homo sapiens, UniProt O43251-10, residues 100-194)
Setting: natural RNA segment, single round, ends assumed
Shared flanks, not repeated: GGGAGUUCUACAGUCCGACGAUC … UGGAAUUCUCGGGUGCCAA
Residues (chain): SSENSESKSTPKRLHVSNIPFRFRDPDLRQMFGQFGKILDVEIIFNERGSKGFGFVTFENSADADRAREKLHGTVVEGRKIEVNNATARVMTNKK
AGGCUUGUGGGUGAUUCCCCGGGCCUUUUCAUUCAAGCUGCACACAAUGAGUCAUUAAAGUUUGUCAAGAAGUUGGUGACCUUAUGCUUGCUUCCAUGCCUGGCCUGGGG: 0.428
CCCCGGACCAAGGGGAUACUGUAAUCAGGUUAUGUACACCAACCUCUGCAUCAGUUGCUUCUAUAGAGCAUCAGCCCUCAUGUUUCAUUGUCUUAAUGUCGGGGAGCAGC: 0.338
GUUCAUGUUGGUAUAGAAAUGUCUUUUAAAUCCUAUUGUUGAGCAAGAUCUGCUCUCUGUCUAUGGUAUUACACAGGGAAAGCUGUGACUGCAGGAUCAGUCUCAUUCUU: 0.426
CCCCUCGUGGCAGCUGUCCUUUCCACGUGCACUGGGACCAGAAGUCAGACAAGGAAUUUAGGAAGCAAAAGUUGACCAAGGGUGCAUUGGGUUCGCCUCCCCGAGGCUCC: 0.576
UUUAAAUGGCUAUUGAAAUUUAUAAUGGCCCUUCAAUUCUUACUAUAUGCUUAAUAGUGUGCUAAAUAAGUGCUCUUCUGUCUUUUAUUAGAGCUUCUCAGAAACCCUAA: 0.629
UGCAGGCUUUGAAACAGCCAACAGAUCCCCUUAGCUCUCUGUCAGUCACGAAGCUAUAUGCCAGGCUGCAAAGGAUGUCAAUAGCAUGUGGCAAUGGGGGUUUUUAUUGC: 1.18
UACUGAUGCUCAGUAACCAUGAAAAACUGUGCACAUUCAUGUACUAAUAGAUCUGUACCUAUCUAUCUCUGUACGCAUAUAUACAGUUCACUGUAGAAAACCACAGCUAG: 0.354
AGCUAGACAAAAGAUCUGUGCCCUGUGUUUCAUCCCAGAGCUUGUUGCCAGAUCACAUGGCUGGAUGUGAUGUGGGGUGGGGGUGGGGUCAUAUCUGAGACAGCCCUCAG: 4.25

Study 4 — technique: protein binding microarray; form: double-stranded DNA, one strand shown; sample: in vitro; concentration: not given; baseline: not given; reading: higher = stronger binding; measurement: E-score
Target: Histone acetyltransferase KAT6A, both winged helices, GST fusion (KAT6A, Homo sapiens, UniProt Q92794, residues 1-181)
Setting: 8-mer, flanks averaged, mean of 2 arrays, mostly near background
Construct (chain): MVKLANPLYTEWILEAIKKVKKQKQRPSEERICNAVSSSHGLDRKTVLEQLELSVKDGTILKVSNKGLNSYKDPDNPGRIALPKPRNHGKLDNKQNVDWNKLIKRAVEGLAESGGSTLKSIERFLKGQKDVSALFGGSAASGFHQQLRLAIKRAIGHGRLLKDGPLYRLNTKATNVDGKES
AAAAAATG: -0.119
CTACCTCA: -0.174
CGTAAAGC: 0.116
ATGGCACA: -0.0852
CTAGAATA: -0.0263
CTCTGTCA: -0.113
AAGAACTC: -0.103
TAAGATTA: -0.0685
ACCAAGAG: -0.203
AACGAGCA: -0.181
TCTTCCCA: -0.204
CCGGGACG: 0.246
AAGAAACT: -0.179
GTAAGAGA: -0.0957
ATGAAAAC: 0.0743
AGCCAAAA: -0.219
CAACTTCC: -0.0884
ACTCTCGA: -0.134
CATGGCAA: -0.147

A few entries again (study 2):
GCTGCTCTGTACTGTCACATGATTCTTTCCCAACTC: 1100 a.u.
AGCGACCTTCTTGGCACCGTGCTTTTTGGCGACCTT: 70 a.u.
ATCGAATTCCTTTGTAACGTGCAAAGCATTTTATAG: 186 a.u.
TATTCAGAAACGAGTCACGTTGTGGAAAATCTCCCT: 1160 a.u.
CTAACGAAGGTTTGTCACTAAACTTACAAGCCAAGT: 67.3 a.u.
CTTTCCCGATCTTGGCACGTGTTTTTAGCACATTTG: 2310 a.u.
CGGGGTTAAGTTTGCGAAGTGGGTGGCTTGCAGCAG: 75.9 a.u.
CGGGGTTAAGTTTGCCCTGTGGGTGGCTTGCAGCAG: 64.2 a.u.
